Measurements from different studies.
Compare with care: the assays were run in different laboratories. Values joined by “and” are separate records of one study, mostly repeats; a detail may differ. ± gives the spread as reported.

Compound	tested on	assay	test system	conditions	how to read	quantity	value
NCCCC[C@H](N[C@@H](CCc1ccccc1)C(=O)O)C(=O)N1CCC[C@H]1C(=O)O	SARS-CoV-2	–	–	concentration not given, Paris laboratory	–	viral replication inhibition	inactive
COc1cc(C2C(C#N)=C(N)Oc3c2c(C)nn3-c2ccc(Cl)cc2)cc(OC)c1OC (stereo not drawn)	SARS-CoV-2	viral replication	Vero	1 µM	–	viral reduction	2.41%
CCCCSCCCNC(=O)C1CCN(Cc2nc(-c3ccc(CC)cc3)oc2C)CC1	SARS-CoV-2	cytopathic effect	USA_WA1/2020	–	–	AC50	14.1 µM
Cc1nn(-c2ccc(Cl)cc2)c2c1C(c1ccc(I)cc1)C(C#N)=C(N)O2 (stereo not drawn)	SARS-CoV-2	viral replication	Vero	10 µM	–	viral reduction	6.28%
CSc1ccc2c(c1)C(N1CCN(C)CC1)Cc1ccccc1S2 (stereo not drawn)	SARS-CoV-2	viral replication, GFP plate reader screen	–	cell-based	–	EC50	7.24 µM
COc1ccc(CC(=O)NC2CCN(Cc3ccc(-c4ccccc4OC)cc3)C2)cc1 (stereo not drawn)	SARS-CoV-2	cytopathic effect, cell-based CPE	USA_WA1/2020	round 1, 5-point dilution	–	AC50	14.1 µM
CCN(CC)CCNC(=O)c1cc(Cl)c(NC(=O)COc2ccc(Cl)cc2)cc1OC	SARS-CoV-2	viral replication, GFP plate reader screen	–	cell-based	–	EC50	3.63 µM
CCCc1nc(C)c2c(=O)nc(-c3cc(S(=O)(=O)N4CCN(CC)CC4)ccc3OCC)[nH]n12	SARS-CoV-2	viral replication	Huh-7	–	–	IC50	> 2 µM
COc1cccc([C@@H](C)NCCCc2ccccc2Cl)c1	SARS-CoV-2	viral replication, high-content imaging screen	–	cell-based	–	EC50	> 100 µM
CC[C@H](C)[C@H](NC(=O)[C@H](CC(C)C)NC(=O)[C@H](Cc1c[nH]c2ccccc12)NC(=O)[C@H](CCC(N)=O)NC(=O)[C@@H](NC(=O)[C@H](Cc1ccccc1)NC(=O)[C@H](C)NC(=O)[C@H](CCCCNC(=O)COCCOCCNC(=O)COCCOCCNC(=O)CC[C@H](NC(=O)CCCCCCCCCCCCCCCCCCC(=O)O)C(=O)O)NC(=O)[C@H](CCC(N)=O)NC(=O)[C@H](C)NC(=O)[C@@H](NC(=O)[C@H](CCCCN)NC(=O)[C@H](CC(=O)O)NC(=O)[C@H](CC(C)C)NC(=O)C(C)(C)NC(=O)[C@@H](NC(=O)[C@H](CO)NC(=O)[C@H](Cc1ccc(O)cc1)NC(=O)[C@H](CC(=O)O)NC(=O)[C@H](CO)NC(=O)[C@@H](NC(=O)[C@H](Cc1ccccc1)NC(=O)[C@@H](NC(=O)CNC(=O)[C@H](CCC(=O)O)NC(=O)C(C)(C)NC(=O)[C@@H](N)Cc1ccc(O)cc1)[C@@H](C)O)[C@@H](C)O)[C@@H](C)CC)[C@@H](C)CC)C(C)C)C(=O)N[C@@H](C)C(=O)NCC(=O)NCC(=O)N1CCC[C@H]1C(=O)N[C@@H](CO)C(=O)N[C@@H](CO)C(=O)NCC(=O)N[C@@H](C)C(=O)N1CCC[C@H]1C(=O)N1CCC[C@H]1C(=O)N1CCC[C@H]1C(=O)N[C@@H](CO)C(N)=O	–	–	healthy human subjects, serum	0.5 mg, day 29, multiple ascending dose	–	lipase	28 ± 12.1 U/L
Cc1nn(-c2ccc(Cl)cc2)c2c1C(c1c(Cl)cccc1Cl)C(C#N)=C(N)O2 (stereo not drawn)	SARS-CoV-2	viral replication	Vero	1 µM	–	viral reduction	0.393%
COc1ccc2c(Sc3ccccc3)c(C(=O)NCCCN3CCCCC3)[nH]c2c1	SARS-CoV-2	cytopathic effect, cell-based CPE	USA_WA1/2020	–	–	AC50	14.1 µM
CC(C)=CCc1c(O)ccc(C(=O)/C=C/c2ccc(O)cc2)c1O	SARS-CoV-2	viral replication	Vero E6	25 µM	reference: mean of replicates	CPE inhibition	0%
Cn1c(=O)c2c(nc(C=Cc3cccc(Cl)c3)n2C)n(C)c1=O	SARS-CoV-2	viral replication	Vero E6, USA-WA1/2020	2.5 µM	–	inhibition	57%
CN(C)C(=O)COC(=O)Cc1ccc(OC(=O)c2ccc(NC(=N)N)cc2)cc1	SARS-CoV-2	viral replication	Huh-7	–	–	IC50	> 2 µM
O=C(O)CCc1nc(-c2ccccc2)c(-c2ccccc2)o1	SARS-CoV-2	viral replication, high-content imaging screen	–	cell-based	–	EC50	> 50.1 µM
Cc1ccc(C)c(Nc2cc(C(=O)NCCCN(C)C3CCCCC3)c3ccccc3n2)c1	SARS-CoV-2	cytopathic effect	USA_WA1/2020	retest, 8-point, duplicates	–	efficacy	0%
COc1ccc(C[C@@H]2c3cc(Oc4cc(C[C@@H]5c6cc(O)c(OC)cc6CCN5C)ccc4O)c(OC)cc3CCN2C)cc1	SARS-CoV-2	cytopathic effect	Vero E6	6.25 µM, first run	–	inhibition	0%
Cc1nn(-c2ccc(Cl)cc2)c2c1C(c1ccc(Cl)cc1)C(C#N)=C(N)O2 (stereo not drawn)	SARS-CoV-2	viral replication	Vero	1 µM	–	viral reduction	0.996%
O=C(O[C@@H]1Cc2c(O)cc(O)cc2O[C@@H]1c1cc(O)c(O)c(O)c1)c1cc(O)c(O)c(O)c1	SARS-CoV-2	viral replication	Vero E6	25 µM	reference: mean of replicates	CPE inhibition	8.33%
Cc1oc(-c2cccc(Cl)c2)nc1CN1CCCC(C(=O)NCCc2ccc(Cl)cc2)C1 (stereo not drawn)	SARS-CoV-2	cytopathic effect, cell-based CPE	USA_WA1/2020	round 1, 5-point dilution	–	AC50	12.6 µM
CC(NC(=O)[C@H](Cc1ccccc1)NC(=O)OCc1ccccc1)C(=O)CF (stereo partly drawn)	SARS-CoV-2	viral replication	Huh-7	–	–	IC50	0.011 µM
COc1ccc(C(CN(C)C)C2(O)CCCCC2)cc1 (stereo not drawn)	SARS-CoV-2	viral replication, anti-nucleoprotein immunostaining	Vero E6	–	–	IC50	> 10 µM
CC(=O)Nc1ncc([N+](=O)[O-])s1	SARS-CoV-2	viral replication	Vero E6, USA-WA1/2020	2.5 µM	–	inhibition	41.8%

Compound	tested on	assay	test system	conditions	how to read	quantity	value
CNCCN(C)c1nc(NC(C)c2ccccc2)c2ccccc2n1 (stereo not drawn)	SARS-CoV-2	cytopathic effect	USA_WA1/2020	retest 8-point	–	efficacy	81.8%
COc1cc2c(cc1OC)CN(CCc1ccc(NC(=O)c3cc(OC)c(OC)cc3NC(=O)c3cnc4ccccc4c3)cc1)CC2	SARS-CoV-2	viral replication	Vero E6	inactive set pIC50 4	–	IC50	> 10 µM
Cc1ccc(-c2cccc(CN3CCCC(c4nc5ccc(C)cc5c(=O)[nH]4)C3)c2)c(C)c1 (stereo not drawn)	SARS-CoV-2	cytopathic effect	USA_WA1/2020	retest, 8-point, duplicates	–	maximum response	96.7%
C[C@H](CS)C(=O)N1CCC[C@H]1C(=O)O	SARS-CoV-2	–	Vero E6	concentration not given, NYC laboratory	–	viral replication inhibition	inactive
Cc1nn(-c2ccc(Cl)cc2)c2c1C(c1ccc(Cl)cc1Cl)C(C#N)=C(N)O2 (stereo not drawn)	SARS-CoV-2	RT-qPCR, refers to: viral RNA	Vero	1 µM	higher means less virus	Ct value	23.4 cycles
CN(C)CCOC(c1ccc(Cl)cc1)c1ccccn1 (stereo not drawn)	SARS-CoV-2	viral replication	Huh-7	–	–	IC50	> 2 µM
OC[C@H]1NC[C@H](O)[C@@H](O)[C@@H]1O	SARS-CoV-2	–	–	concentration not given, Paris laboratory	–	viral replication inhibition	inactive
CC(=O)[C@H]1CC[C@H]2[C@@H]3CCC4=CC(=O)CC[C@]4(C)[C@H]3CC[C@]12C	SARS-CoV-2	viral replication	A549 expressing ACE2	inactive set pIC50 4	–	IC50	> 10 µM
Cc1ccc(C(=O)Oc2ccc(C(O)CNC(C)(C)C)cc2OC(=O)c2ccc(C)cc2)cc1 (stereo not drawn)	SARS-CoV-2	viral replication, GFP plate reader screen	–	cell-based	–	EC50	8.13 µM
Cc1cc(Nc2cc(N)ncn2)c(=O)n2c1C(=O)NC21CCCCC1	SARS-CoV-2	–	Vero E6	concentration not given, NYC laboratory	–	viral replication inhibition	inactive
Cn1cnc(Cn2c(=O)[nH]/c(=N\c3cc4cn(C)nc4cc3Cl)n(Cc3cc(F)c(F)cc3F)c2=O)n1	SARS-CoV-2	viral replication	Vero C1008, XBB.1	12.5 µM	–	inhibition	100%
CN(C)C(=N)N=C(N)N	SARS-CoV-2	–	SB2	500 µM, unit not given	reference: DMSO	viral RNA level	0.234 and 0.252
Cc1ccc(Cl)cc1N1CCN(CCCNc2ncnc3onc(-c4ccc(F)cc4)c23)CC1	SARS-CoV-2	cytopathic effect	USA_WA1/2020	round 1, 5-point	–	maximum response	65.8%
CC(C)(C)[C@H](NC(=O)C(F)(F)F)C(=O)N1C[C@H]2[C@@H]([C@H]1C(=O)N[C@H](C#N)C[C@@H]1CCNC1=O)C2(C)C	SARS-CoV-2	viral replication	Vero E6	0.1111 µM	–	inhibition	113%
CN(C)CCCn1cc(-c2ccccc2)c(-c2ccccc2)n1	SARS-CoV-2	viral replication, GFP plate reader screen	–	cell-based	–	EC50	14.5 µM
COc1ccc2[nH]c(C(O)c3ccc(Cl)cc3)c(CCNC(C)=O)c2c1 (stereo not drawn)	SARS-CoV-2	FISH-Flow dsRNA	Vero E6	10 µM	–	viral replication	no effect
COc1ccc2cc1Oc1ccc(cc1)C[C@H]1c3cc(c(OC)cc3CCN1C)Oc1c(OC)c(OC)cc3c1[C@H](C2)N(C)CC3	SARS-CoV-2	viral replication	Huh-7-ACE2, USA-WA1/2020	–	–	EC90	1.66 µM
Fc1ccc([C@@H]2CCNC[C@H]2COc2ccc3c(c2)OCO3)cc1	SARS-CoV-2	viral replication, high-content imaging screen	–	cell-based	–	EC50	> 100 µM
O=C(/C=C/c1ccc(O)c(O)c1/C=C/c1ccc(O)c(O)c1)O[C@H](Cc1ccc(O)c(O)c1)C(=O)O	SARS-CoV-2	viral replication	Vero E6	6.25 µM	reference: mean of replicates	CPE inhibition	0%
Fc1ccc([C@@H]2CCNC[C@H]2COc2ccc3c(c2)OCO3)cc1	SARS-CoV-2	viral replication, RT-qPCR	A549 expressing ACE2	–	–	IC50	2.57 µM
Nc1ncnc2c([C@@H]3N[C@H](CO)[C@@H](O)[C@H]3O)c[nH]c12	Zaire ebolavirus	antibody staining	HeLa, Kikwit	25 µM	–	antigen-positive cells	2.8%
CN(C(=O)CN(CCO)CC(=O)N(C)C(C)(C)Cc1ccccc1)C(C)(C)Cc1ccccc1	SARS-CoV-2	viral replication, high-content imaging screen	–	cell-based	–	EC50	> 100 µM
CC(C)C[C@@H]1NC(=O)[C@H](Cc2cn(Cc3ccc(Br)cc3)c3ccccc23)N(C)C(=O)[C@H](CC(C)C)NC(=O)[C@H](CC(C)C)N(C)C(=O)[C@H](CC(C)C)NC(=O)[C@@H](CCC#N)OC(=O)[C@H](C)N(C)C1=O	SARS-CoV-2	viral replication	Vero E6	concentration not given	–	activity class	active
COc1cccc2c(N3CCc4ccccc4C3C)nc(Nc3ccc(F)cc3C)nc12 (stereo not drawn)	SARS-CoV-2	viral replication	Vero C1008, USA-WA1/2020	2.5 µM, reconfirmation	–	inhibition	63.1%

Repeated from above:
Compound	tested on	assay	test system	conditions	how to read	quantity	value
Cc1ccc(C(=O)Oc2ccc(C(O)CNC(C)(C)C)cc2OC(=O)c2ccc(C)cc2)cc1 (stereo not drawn)	SARS-CoV-2	viral replication, GFP plate reader screen	–	cell-based	–	EC50	8.13 µM
CCCCSCCCNC(=O)C1CCN(Cc2nc(-c3ccc(CC)cc3)oc2C)CC1	SARS-CoV-2	cytopathic effect	USA_WA1/2020	–	–	AC50	14.1 µM
COc1ccc(C(CN(C)C)C2(O)CCCCC2)cc1 (stereo not drawn)	SARS-CoV-2	viral replication, anti-nucleoprotein immunostaining	Vero E6	–	–	IC50	> 10 µM
CC(=O)[C@H]1CC[C@H]2[C@@H]3CCC4=CC(=O)CC[C@]4(C)[C@H]3CC[C@]12C	SARS-CoV-2	viral replication	A549 expressing ACE2	inactive set pIC50 4	–	IC50	> 10 µM
Cc1nn(-c2ccc(Cl)cc2)c2c1C(c1ccc(I)cc1)C(C#N)=C(N)O2 (stereo not drawn)	SARS-CoV-2	viral replication	Vero	10 µM	–	viral reduction	6.28%
COc1cc(C2C(C#N)=C(N)Oc3c2c(C)nn3-c2ccc(Cl)cc2)cc(OC)c1OC (stereo not drawn)	SARS-CoV-2	viral replication	Vero	1 µM	–	viral reduction	2.41%
CC(C)(C)[C@H](NC(=O)C(F)(F)F)C(=O)N1C[C@H]2[C@@H]([C@H]1C(=O)N[C@H](C#N)C[C@@H]1CCNC1=O)C2(C)C	SARS-CoV-2	viral replication	Vero E6	0.1111 µM	–	inhibition	113%
CC(NC(=O)[C@H](Cc1ccccc1)NC(=O)OCc1ccccc1)C(=O)CF (stereo partly drawn)	SARS-CoV-2	viral replication	Huh-7	–	–	IC50	0.011 µM
